Assay results gathered from unrelated publications.
Every numbered part comes from another study and shows a few of its results, in no order. Positions count from the first letter of the parent shown.

Study 1
Target: TAR DNA-binding protein 43, full length, His tag (TARDBP, Homo sapiens, UniProt Q13148, residues 1-414)
Technique: RNA Bind-n-Seq
Molecule type: RNA
Matrix: in vitro
Concentration: 20 nM
Setting: 6-mer, flanks averaged, single round
Added: 150 mM KCl
Reference: input library
Direction: higher = stronger binding
Measurement: 6-mer enrichment (R)
GUGCCU: 0.846
GCAAAU: 0.716
ACGUGG: 1.63
UAGUAC: 0.618
AGCACU: 0.626
CGCUUG: 0.77
AGGGUA: 2.03
GAUACG: 0.908

Study 2
Target: CRIPT, C-terminal peptide
Technique: DHFR complementation, deep sequencing
Matrix: yeast
Setting: single substitutions, model-inferred values
Reference: wild type
Direction: higher = weaker binding
Measurement: binding free energy change
Starting sequence: ERBIN, PDZ domain 1 (human); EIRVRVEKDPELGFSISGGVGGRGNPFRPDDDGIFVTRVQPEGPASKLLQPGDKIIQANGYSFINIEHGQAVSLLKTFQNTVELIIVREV; partner TKNYKQTSV
A45R: 0.85 kcal/mol
E89P: 0.192 kcal/mol
Q40H: 0.294 kcal/mol
G43Y: 0.953 kcal/mol
P29F: 0.214 kcal/mol
V20N: 0.297 kcal/mol
E67C: 0.143 kcal/mol
T81L: 0.0282 kcal/mol

Study 3
Substance: PhoQ, residues 284 288 289 292 302 303 SSTLLI
Technique: Sort-seq
Measured: YFP reporter
Matrix: E. coli
Setting: PhoQ-PhoP variant library
Added: 10 µM Mg2+
Reference: high Mg2+ state
Direction: higher = stronger signaling
Measurement: fold induction
PhoP, residues 12 14 15 18 19 GMGLL (Escherichia coli, UniProt P23836): 2.86
PhoP, residues 12 14 15 18 19 QQAYL (Escherichia coli, UniProt P23836): 11.5
PhoP, residues 12 14 15 18 19 LFHKL (Escherichia coli, UniProt P23836): 2.05

Single results of other studies
Starting sequence: PafA, mature enzyme, eGFP fusion (Elizabethkingia meningoseptica, UniProt Q9KJX5); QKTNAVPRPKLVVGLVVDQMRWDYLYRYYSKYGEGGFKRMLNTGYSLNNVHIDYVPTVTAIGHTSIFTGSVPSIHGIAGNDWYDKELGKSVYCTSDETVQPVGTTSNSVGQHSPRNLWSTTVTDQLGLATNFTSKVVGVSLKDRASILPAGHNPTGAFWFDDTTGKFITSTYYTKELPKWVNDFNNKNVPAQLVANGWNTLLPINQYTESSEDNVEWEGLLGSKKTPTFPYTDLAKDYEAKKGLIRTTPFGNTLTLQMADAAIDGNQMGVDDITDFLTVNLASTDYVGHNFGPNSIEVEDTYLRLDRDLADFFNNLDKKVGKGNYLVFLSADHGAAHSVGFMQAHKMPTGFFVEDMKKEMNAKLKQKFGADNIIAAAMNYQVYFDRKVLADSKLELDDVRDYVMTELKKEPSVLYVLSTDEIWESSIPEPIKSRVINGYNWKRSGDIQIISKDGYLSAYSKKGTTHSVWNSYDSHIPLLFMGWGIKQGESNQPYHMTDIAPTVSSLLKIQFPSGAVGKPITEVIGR
T419G  oxyanion analog dissociation constant (tungstate, free oxyanion; microfluidic competitive inhibition; in vitro, cell-free expressed; not given, derived from inhibition constants, unchanged parent 2230 nM; lower = stronger binding): 1.27 µM

A few entries again (study 1):
AGGGUA: 2.03
GAUACG: 0.908
